Results pooled from the literature.
Each line is one published result; not all experiments were run side by side.
NT5E: 5'-nucleotidase (NT5E, Homo sapiens, UniProt P21589)
UniProt P21589, sequence (whole entry, looked up): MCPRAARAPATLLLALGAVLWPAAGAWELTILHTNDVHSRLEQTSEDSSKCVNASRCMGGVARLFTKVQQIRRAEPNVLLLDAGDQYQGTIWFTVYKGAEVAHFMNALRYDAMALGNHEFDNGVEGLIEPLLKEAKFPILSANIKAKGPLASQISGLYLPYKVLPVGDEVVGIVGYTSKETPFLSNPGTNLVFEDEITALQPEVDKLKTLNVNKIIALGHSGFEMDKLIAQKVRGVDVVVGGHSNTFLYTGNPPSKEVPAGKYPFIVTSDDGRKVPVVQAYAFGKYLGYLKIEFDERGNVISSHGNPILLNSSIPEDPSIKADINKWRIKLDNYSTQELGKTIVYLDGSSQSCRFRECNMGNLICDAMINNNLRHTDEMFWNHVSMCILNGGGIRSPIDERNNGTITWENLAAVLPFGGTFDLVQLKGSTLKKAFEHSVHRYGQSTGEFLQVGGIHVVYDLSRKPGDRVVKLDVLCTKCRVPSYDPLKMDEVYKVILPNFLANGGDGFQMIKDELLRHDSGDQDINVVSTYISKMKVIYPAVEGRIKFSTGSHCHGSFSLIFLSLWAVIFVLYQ
AMY2: Pancreatic alpha-amylase (AMY2, Sus scrofa, UniProt P00690)
UniProt P00690, sequence (whole entry, looked up): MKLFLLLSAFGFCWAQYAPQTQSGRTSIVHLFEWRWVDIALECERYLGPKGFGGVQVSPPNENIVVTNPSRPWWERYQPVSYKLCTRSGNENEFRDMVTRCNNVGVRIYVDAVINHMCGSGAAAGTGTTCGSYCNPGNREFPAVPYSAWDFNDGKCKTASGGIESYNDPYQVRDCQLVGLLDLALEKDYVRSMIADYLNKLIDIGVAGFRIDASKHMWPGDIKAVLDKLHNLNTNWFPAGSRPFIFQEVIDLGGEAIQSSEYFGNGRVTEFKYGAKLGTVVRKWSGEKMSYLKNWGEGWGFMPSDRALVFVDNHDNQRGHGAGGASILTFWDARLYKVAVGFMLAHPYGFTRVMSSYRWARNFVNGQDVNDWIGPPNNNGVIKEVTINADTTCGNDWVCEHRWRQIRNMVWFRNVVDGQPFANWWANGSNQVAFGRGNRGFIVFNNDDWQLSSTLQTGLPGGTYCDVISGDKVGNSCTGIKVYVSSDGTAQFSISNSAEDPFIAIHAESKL
SLC22A11: Solute carrier family 22 member 11 (SLC22A11, Homo sapiens, UniProt Q9NSA0)
UniProt Q9NSA0, sequence (whole entry, looked up): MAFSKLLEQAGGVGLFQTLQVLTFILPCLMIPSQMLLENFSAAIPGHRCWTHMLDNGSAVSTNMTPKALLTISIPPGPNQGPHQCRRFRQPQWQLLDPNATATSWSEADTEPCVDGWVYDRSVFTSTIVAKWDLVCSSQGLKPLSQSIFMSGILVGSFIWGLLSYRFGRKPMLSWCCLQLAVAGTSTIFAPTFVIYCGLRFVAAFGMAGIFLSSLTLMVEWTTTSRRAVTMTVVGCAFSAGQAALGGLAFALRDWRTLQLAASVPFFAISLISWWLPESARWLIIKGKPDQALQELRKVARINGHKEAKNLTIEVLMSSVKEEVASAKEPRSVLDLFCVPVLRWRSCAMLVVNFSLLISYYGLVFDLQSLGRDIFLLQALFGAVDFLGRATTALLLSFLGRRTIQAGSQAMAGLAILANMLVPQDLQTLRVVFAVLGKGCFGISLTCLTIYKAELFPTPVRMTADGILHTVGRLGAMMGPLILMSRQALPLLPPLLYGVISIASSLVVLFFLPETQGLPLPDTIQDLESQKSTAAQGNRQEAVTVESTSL
CDK7 with cyclin H: Cyclin-dependent kinase 7, with cyclin H (CDK7, Homo sapiens, UniProt P50613)
UniProt P50613, sequence (whole entry, looked up): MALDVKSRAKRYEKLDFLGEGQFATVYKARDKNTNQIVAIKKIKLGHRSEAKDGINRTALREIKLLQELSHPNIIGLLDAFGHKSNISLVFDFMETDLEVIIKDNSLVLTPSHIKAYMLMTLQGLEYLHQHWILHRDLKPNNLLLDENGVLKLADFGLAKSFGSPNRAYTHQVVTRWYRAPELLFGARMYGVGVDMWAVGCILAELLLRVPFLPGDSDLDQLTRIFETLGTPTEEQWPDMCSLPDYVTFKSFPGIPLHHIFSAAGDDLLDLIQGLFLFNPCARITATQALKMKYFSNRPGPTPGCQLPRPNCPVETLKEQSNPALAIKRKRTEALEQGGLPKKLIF
MAPK3: Mitogen-activated protein kinase 3 (MAPK3, Homo sapiens, UniProt P27361)
UniProt P27361, sequence (whole entry, looked up): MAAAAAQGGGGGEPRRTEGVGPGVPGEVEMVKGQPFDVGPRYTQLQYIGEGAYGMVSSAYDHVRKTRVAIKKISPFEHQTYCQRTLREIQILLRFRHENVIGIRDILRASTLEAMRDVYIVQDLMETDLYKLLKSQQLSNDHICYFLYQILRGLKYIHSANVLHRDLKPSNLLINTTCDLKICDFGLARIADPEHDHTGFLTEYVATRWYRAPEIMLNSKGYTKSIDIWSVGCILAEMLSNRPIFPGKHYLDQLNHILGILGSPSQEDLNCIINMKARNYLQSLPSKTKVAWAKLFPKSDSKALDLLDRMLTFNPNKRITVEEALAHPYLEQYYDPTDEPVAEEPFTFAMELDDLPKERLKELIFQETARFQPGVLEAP
PIP4K2C: Phosphatidylinositol 5-phosphate 4-kinase type-2 gamma (PIP4K2C, Homo sapiens, UniProt Q8TBX8)
UniProt Q8TBX8, sequence (whole entry, looked up): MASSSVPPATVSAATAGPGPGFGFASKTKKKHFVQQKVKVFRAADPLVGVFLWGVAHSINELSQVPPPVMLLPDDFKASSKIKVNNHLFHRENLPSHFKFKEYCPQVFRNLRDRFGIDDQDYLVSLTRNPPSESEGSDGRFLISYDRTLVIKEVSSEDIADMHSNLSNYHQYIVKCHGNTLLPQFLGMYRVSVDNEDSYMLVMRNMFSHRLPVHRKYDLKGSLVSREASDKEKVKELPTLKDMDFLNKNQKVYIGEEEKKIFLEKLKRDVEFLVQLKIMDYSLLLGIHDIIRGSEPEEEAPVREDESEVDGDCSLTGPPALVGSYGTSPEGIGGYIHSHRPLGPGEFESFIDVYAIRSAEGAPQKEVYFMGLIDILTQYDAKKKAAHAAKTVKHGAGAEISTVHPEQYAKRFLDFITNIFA
rep papain-like protease: Replicase polyprotein 1ab, papain-like protease (rep, Porcine epidemic diarrhea virus, UniProt P0C6Y4)
SLC6A2: Sodium-dependent noradrenaline transporter (SLC6A2, Homo sapiens, UniProt P23975)
UniProt P23975, sequence (whole entry, looked up): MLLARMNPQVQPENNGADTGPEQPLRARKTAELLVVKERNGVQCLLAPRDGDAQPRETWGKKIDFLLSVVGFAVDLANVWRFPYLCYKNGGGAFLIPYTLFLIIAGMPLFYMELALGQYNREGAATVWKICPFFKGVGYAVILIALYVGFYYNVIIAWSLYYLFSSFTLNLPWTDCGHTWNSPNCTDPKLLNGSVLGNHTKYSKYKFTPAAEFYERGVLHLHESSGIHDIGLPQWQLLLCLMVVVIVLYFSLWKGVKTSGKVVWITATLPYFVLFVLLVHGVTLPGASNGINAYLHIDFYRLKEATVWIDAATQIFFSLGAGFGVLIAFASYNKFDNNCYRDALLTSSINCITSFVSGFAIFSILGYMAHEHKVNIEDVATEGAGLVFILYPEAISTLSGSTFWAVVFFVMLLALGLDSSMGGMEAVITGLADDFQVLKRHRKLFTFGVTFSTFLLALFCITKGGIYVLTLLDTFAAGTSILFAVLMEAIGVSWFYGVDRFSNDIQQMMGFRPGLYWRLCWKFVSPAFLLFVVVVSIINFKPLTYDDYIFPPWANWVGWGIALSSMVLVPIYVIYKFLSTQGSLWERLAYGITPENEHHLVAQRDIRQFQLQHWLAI
rep main protease: Replicase polyprotein 1ab, main protease (rep, Porcine epidemic diarrhea virus, UniProt P0C6Y4)
MAOB: Amine oxidase [flavin-containing] B (MAOB, Homo sapiens, UniProt P27338)
UniProt P27338, sequence (whole entry, looked up): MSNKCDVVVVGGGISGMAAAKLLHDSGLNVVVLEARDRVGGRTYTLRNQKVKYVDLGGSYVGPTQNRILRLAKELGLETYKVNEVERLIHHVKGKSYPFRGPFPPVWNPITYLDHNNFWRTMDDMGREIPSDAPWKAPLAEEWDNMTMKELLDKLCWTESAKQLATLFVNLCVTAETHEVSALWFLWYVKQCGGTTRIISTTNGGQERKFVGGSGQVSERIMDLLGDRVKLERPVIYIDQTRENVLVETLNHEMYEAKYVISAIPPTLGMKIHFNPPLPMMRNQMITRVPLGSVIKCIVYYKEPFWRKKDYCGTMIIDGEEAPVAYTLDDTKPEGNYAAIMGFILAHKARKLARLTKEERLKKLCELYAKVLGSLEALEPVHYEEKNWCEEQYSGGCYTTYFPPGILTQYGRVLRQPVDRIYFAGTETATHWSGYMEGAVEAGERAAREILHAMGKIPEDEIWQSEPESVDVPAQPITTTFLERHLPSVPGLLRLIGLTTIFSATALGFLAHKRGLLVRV
UniProt P30518, sequence (whole entry, looked up): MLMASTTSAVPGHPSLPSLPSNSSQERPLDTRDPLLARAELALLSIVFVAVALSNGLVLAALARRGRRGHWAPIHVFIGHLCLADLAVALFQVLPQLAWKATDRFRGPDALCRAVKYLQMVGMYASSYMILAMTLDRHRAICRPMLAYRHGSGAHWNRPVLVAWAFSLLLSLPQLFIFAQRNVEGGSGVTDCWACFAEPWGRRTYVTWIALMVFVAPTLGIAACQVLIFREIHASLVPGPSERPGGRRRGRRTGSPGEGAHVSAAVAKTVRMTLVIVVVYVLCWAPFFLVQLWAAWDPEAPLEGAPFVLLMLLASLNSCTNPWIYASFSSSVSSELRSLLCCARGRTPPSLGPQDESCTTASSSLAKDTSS
UniProt Q16566, sequence (whole entry, looked up): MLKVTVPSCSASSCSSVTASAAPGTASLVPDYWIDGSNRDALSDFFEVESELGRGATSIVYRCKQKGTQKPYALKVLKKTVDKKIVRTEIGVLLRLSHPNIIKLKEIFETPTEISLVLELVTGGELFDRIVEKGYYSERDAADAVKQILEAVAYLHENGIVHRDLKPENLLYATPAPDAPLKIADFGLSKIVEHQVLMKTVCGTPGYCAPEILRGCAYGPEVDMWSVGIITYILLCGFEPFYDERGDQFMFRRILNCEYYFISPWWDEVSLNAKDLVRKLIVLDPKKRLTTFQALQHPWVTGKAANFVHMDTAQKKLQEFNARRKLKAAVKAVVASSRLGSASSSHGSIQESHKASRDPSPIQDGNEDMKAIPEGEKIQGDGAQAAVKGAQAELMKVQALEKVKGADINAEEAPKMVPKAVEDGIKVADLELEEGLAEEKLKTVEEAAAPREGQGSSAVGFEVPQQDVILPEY

| SMILES | target | read-out | mode | technique | cell line | tested at | inhibition |
| --- | --- | --- | --- | --- | --- | --- | --- |
| Cc1cc(-c2ccccc2)nc(SCC(=O)Nc2ccccc2)c1C#N | NT5E | enzyme activity | inhibitor | – | – | 10 µM | 71% |
| O=C(NO)c1cc(F)cc(OS(=O)(=O)Oc2ccccc2)c1 | Histone deacetylase 2 (HDAC2, Homo sapiens, UniProt Q92769) | enzyme activity | inhibitor | fluorescence | – | 10 µM | 6% |
| CCCN(O)N=Nc1ccc(S(=O)(=O)Nc2cc(C)on2)cc1 | AMY2 | enzyme activity | inhibitor | – | – | 180 µg/mL | 47.4% |
| CC1(C)[C@@H](OC(=O)CCC(=O)O)CC[C@]2(C)[C@H]3C(=O)C=C4[C@@H]5C[C@@](C)(C(=O)O)CC[C@]5(C)CC[C@@]4(C)[C@]3(C)CC[C@@H]12 | SLC22A11 | transporter uptake | inhibitor | – | – | 25 µM | 90.5% |
| Cc1cc(=O)c2c(O)cc(O)c([C@H]3CCN(C)C[C@H]3O)c2o1 | CDK7 with cyclin H | enzyme activity | inhibitor | ADP detection | – | 10 µM | 75% |
| CCN(O)N=Nc1ccc(S(=O)(=O)Nc2onc(C)c2C)cc1 | AMY2 | enzyme activity | inhibitor | – | – | 240 µg/mL | 52.6% |
| CC[C@H](C)[C@H](NC(=O)[C@H](CCC(N)=O)NC(=O)[C@H](CC(C)C)NC(=O)[C@H](CCSC)NC(=O)[C@H](CCCCN)NC(=O)[C@H](CO)NC(=O)[C@H](CO)NC(=O)[C@H](CCSC)NC(=O)[C@H](CC(C)C)NC(=O)[C@H](CC(N)=O)NC(=O)[C@@H](NC(=O)[C@@H](NC(=O)[C@H](CO)NC(=O)[C@H](CC(C)C)NC(=O)[C@H](CS)NC(=O)[C@H](CCCNC(=N)N)NC(=O)[C@H](CC(=O)O)NC(=O)[C@H](Cc1c[nH]c2ccccc12)NC(=O)[C@H](Cc1ccccc1)NC(=O)[C@H](C)NC(=O)[C@H](CCC(=O)O)NC(=O)[C@@H](N)CCCCN)C(C)C)[C@@H](C)CC)C(=O)N[C@@H](CC(N)=O)C(=O)N[C@@H](C)C(=O)O | MAPK3 | enzyme activity | inhibitor | radiometric | – | 100 µM | 6% |
| CCCC(C)C(=O)Nc1ccc(-c2ccc3ncn(CCC)c(=O)c3c2)cn1 (stereo not drawn) | PIP4K2C | binding | – | competition with immobilised ligand | – | 0.5 µM | 89% |
| COc1cc(CNC(=O)c2ccc(Cl)s2)cc(Br)c1OC | rep papain-like protease | enzyme activity | inhibitor | FRET | – | 10 µM | 25.2% |
| Cc1cccc(NC(=O)c2sc3nc(-c4ccccc4)cc(C(F)(F)F)c3c2N)n1 | NT5E | enzyme activity | inhibitor | – | – | 10 µM | 39% |
| O=C(NCc1cc(O)c(O)c(Br)c1)c1ccc(Cl)s1 | rep papain-like protease | enzyme activity | inhibitor | FRET | – | 10 µM | 104% |
| NC/C(=C\F)COc1cccc(Cn2c(=S)[nH]c(=O)c3[nH]cnc32)c1 | Diamine oxidase [copper-containing] (AOC1, Homo sapiens, UniProt P19801) | enzyme activity | inhibitor | – | – | 0.3333 µM | 3.97% |
| CCCN(O)N=Nc1ccc(S(=O)(=O)Nc2onc(C)c2C)cc1 | AMY2 | enzyme activity | inhibitor | – | – | 180 µg/mL | 57.9% |
| CN1[C@@H](CC(=O)c2ccccc2)CCC[C@H]1C[C@H](O)c1ccccc1 | CDK7 with cyclin H | enzyme activity | inhibitor | ADP detection | – | 10 µM | 3.62% |
| CO[C@H]1C(=O)[C@]2(C)[C@@H](OC)C[C@H]3OC[C@@]3(OC(C)=O)[C@H]2[C@H](OC(=O)c2ccccc2)[C@]2(O)C[C@H](OC(=O)[C@H](O)[C@@H](NC(=O)OC(C)(C)C)c3ccccc3)C(C)=C1C2(C)C | SLC22A11 | transporter uptake | inhibitor | – | – | 25 µM | 74.4% |
| Cc1cc(C)c2c(N)c(C(=O)Nc3cccnc3)sc2n1 | NT5E | enzyme activity | inhibitor | – | – | 10 µM | -23% |
| CCC(CC(=O)NCc1cc(Br)c(OC)c(OC)c1)c1ccccc1 (stereo not drawn) | rep papain-like protease | enzyme activity | inhibitor | FRET | – | 10 µM | 29.6% |
| N#CC[C@@]12C[C@@H]1[C@@H](n1cnc3c(NCCCCCc4ccccc4)nc(C#Cc4ccc(Cl)s4)nc31)[C@H](O)[C@@H]2O | SLC6A2 | ligand displacement | – | radioligand | – | 10 µM | 0% |
| CCOC(=O)c1ccc(NC(=O)CSc2nc(-c3ccccc3)cc(C(F)(F)F)c2C#N)cc1 | NT5E | enzyme activity | inhibitor | – | – | 10 µM | 10% |
| CCN(O)N=Nc1ccc(S(=O)(=O)Nc2cc(C)on2)cc1 | AMY2 | enzyme activity | inhibitor | – | – | 180 µg/mL | 52.6% |
| CN1CC(Oc2cnc(C#N)cc2-c2ccn3nc(NC(=O)C4CC4)cc3c2)C1 | Calcium/calmodulin-dependent protein kinase type IV (CAMK4, Homo sapiens, UniProt Q16566) | enzyme activity | inhibitor | – | – | 1 µM | 11% |

| SMILES | target | read-out | mode | technique | cell line | tested at | inhibition |
| --- | --- | --- | --- | --- | --- | --- | --- |
| O=C(NCc1cc(O)c(O)c(Br)c1)c1cccc(CCl)c1 | rep main protease | enzyme activity | inhibitor | FRET | – | 10 µM | 101% |
| CCN(O)N=Nc1ccc(S(=O)(=O)Nc2nccs2)cc1 | AMY2 | enzyme activity | inhibitor | – | – | 180 µg/mL | 42.1% |
| O=C(Nc1ccccc1)c1ccccc1 | MAOB | enzyme activity | inhibitor | – | – | 1 µM | < 5% |
| Cc1cc(O)c(-c2ccc([C@@H](C)CN(C)C)cc2)c2c1[nH]c(=O)c1sccc12 | Calcium/calmodulin-dependent protein kinase type II subunit delta (CAMK2D, Homo sapiens, UniProt Q13557) | cell-free assay | inhibitor | – | – | 0.1 µM | 1.19% |
| CC(C)C(C(=O)NCc1cc(O)c(O)c(Br)c1)c1ccc(Cl)cc1 (stereo not drawn) | rep papain-like protease | enzyme activity | inhibitor | FRET | – | 10 µM | 31.9% |
| Cc1ccc(N(O)N=Nc2ccc(S(=O)(=O)Nc3onc(C)c3C)cc2)cc1 | AMY2 | enzyme activity | inhibitor | – | – | 240 µg/mL | 47.4% |
| O=C(Nc1ccccc1Cl)c1ccc2c(c1)C(=O)NC2=O | MAOB | enzyme activity | inhibitor | – | – | 1 µM | < 5% |
| CCOC(=O)C12CC1C(n1ccc3c(NC4CC4)nc(C#Cc4ccccc4)nc31)C(O)C2O (stereo not drawn) | SLC6A2 | ligand displacement | – | radioligand | – | 10 µM | 19% |
| CCNCc1cnn(-c2ccc(-n3ccc(Cl)c(Cl)c3=O)cc2)c1C(F)(F)F | Short transient receptor potential channel 3 (TRPC3, Homo sapiens, UniProt Q13507) | ion current | inhibitor | patch clamp | HEK293 | 10 µM | > 90% |
| CCCCCC(=O)Nc1ccc(-c2ccc3ncn(Cc4ccccc4)c(=O)c3c2)cn1 | PIP4K2C | binding | – | competition with immobilised ligand | – | 0.5 µM | 74.8% |
| Cc1cc(=O)c2c(O[C@@H]3OC(CO)[C@@H](O)[C@H](O)C3O)cc(O)cc2o1 (stereo partly drawn) | CDK7 with cyclin H | enzyme activity | inhibitor | ADP detection | – | 10 µM | 18.9% |
| COc1ccc(NC(=O)CSc2nc(-c3ccccc3)cc(C(F)(F)F)c2C#N)cc1 | NT5E | enzyme activity | inhibitor | HPLC | – | 10 µM | 85% |
| CC[C@H](C)[C@H](NC(=O)[C@H](CCC(N)=O)NC(=O)[C@@H](NC(=O)[C@H](CCSC)NC(=O)[C@H](CCCCN)NC(=O)[C@H](CO)NC(=O)[C@@H](NC(=O)[C@H](CCSC)NC(=O)[C@H](CC(C)C)NC(=O)[C@H](CC(N)=O)NC(=O)[C@@H](NC(=O)[C@@H](NC(=O)[C@H](CO)NC(=O)[C@H](CC(C)C)NC(=O)[C@H](C)NC(=O)[C@H](CCCNC(=N)N)NC(=O)[C@H](CCC(=O)O)NC(=O)[C@H](Cc1ccc(O)cc1)NC(=O)[C@H](Cc1ccccc1)NC(=O)[C@H](C)NC(=O)[C@H](CC(N)=O)NC(=O)[C@@H](N)CCCCN)[C@@H](C)CC)[C@@H](C)CC)[C@@H](C)O)C(C)C)C(=O)N[C@@H](CC(N)=O)C(=O)N[C@H](C(=O)O)C(C)C | MAPK3 | enzyme activity | inhibitor | radiometric | – | 500 µM | 54% |
| O=C(NCc1cc(O)c(O)c(Br)c1)c1nccs1 | rep papain-like protease | enzyme activity | inhibitor | FRET | – | 10 µM | 99% |
| Cc1noc(NS(=O)(=O)c2ccc(N=NN(C)O)cc2)c1C | AMY2 | enzyme activity | inhibitor | – | – | 180 µg/mL | 57.9% |
| Nc1c(C(=O)Nc2cccnc2)sc2nc(-c3ccccc3)cc(C(F)(F)F)c12 | NT5E | enzyme activity | inhibitor | – | – | 10 µM | 73% |
| CCCCC(=O)Nc1ccc(-c2cnc3ccn(CCC)c(=O)c3c2)cn1 | PIP4K2C | binding | – | competition with immobilised ligand | – | 0.5 µM | 25% |
| O=C(NCc1ccc(O)c(O)c1)c1ccccc1 | rep papain-like protease | enzyme activity | inhibitor | FRET | – | 10 µM | 38.9% |
| CCN1/C(=C/C(C)=O)Sc2ccc(F)cc21 | Vasopressin V2 receptor (AVPR2, Homo sapiens, UniProt P30518) | ligand displacement | – | radioligand | – | 10 µM | 3.2% |
| Cc1cccc(N(O)N=Nc2ccc(S(=O)(=O)Nc3cc(C)on3)cc2)c1 | AMY2 | enzyme activity | inhibitor | – | – | 300 µg/mL | 68.4% |
| O=C(NCc1cc(O)c(O)c(Br)c1)c1cccc2ccccc12 | rep main protease | enzyme activity | inhibitor | FRET | – | 10 µM | 87.5% |
